Results collected from several papers.
Numbered parts are unrelated; each lists some results of a single study. “And” joins repeats or separate records; there may be more than shown.
Chain of UniProt P42336 (whole entry, unmodified, looked up): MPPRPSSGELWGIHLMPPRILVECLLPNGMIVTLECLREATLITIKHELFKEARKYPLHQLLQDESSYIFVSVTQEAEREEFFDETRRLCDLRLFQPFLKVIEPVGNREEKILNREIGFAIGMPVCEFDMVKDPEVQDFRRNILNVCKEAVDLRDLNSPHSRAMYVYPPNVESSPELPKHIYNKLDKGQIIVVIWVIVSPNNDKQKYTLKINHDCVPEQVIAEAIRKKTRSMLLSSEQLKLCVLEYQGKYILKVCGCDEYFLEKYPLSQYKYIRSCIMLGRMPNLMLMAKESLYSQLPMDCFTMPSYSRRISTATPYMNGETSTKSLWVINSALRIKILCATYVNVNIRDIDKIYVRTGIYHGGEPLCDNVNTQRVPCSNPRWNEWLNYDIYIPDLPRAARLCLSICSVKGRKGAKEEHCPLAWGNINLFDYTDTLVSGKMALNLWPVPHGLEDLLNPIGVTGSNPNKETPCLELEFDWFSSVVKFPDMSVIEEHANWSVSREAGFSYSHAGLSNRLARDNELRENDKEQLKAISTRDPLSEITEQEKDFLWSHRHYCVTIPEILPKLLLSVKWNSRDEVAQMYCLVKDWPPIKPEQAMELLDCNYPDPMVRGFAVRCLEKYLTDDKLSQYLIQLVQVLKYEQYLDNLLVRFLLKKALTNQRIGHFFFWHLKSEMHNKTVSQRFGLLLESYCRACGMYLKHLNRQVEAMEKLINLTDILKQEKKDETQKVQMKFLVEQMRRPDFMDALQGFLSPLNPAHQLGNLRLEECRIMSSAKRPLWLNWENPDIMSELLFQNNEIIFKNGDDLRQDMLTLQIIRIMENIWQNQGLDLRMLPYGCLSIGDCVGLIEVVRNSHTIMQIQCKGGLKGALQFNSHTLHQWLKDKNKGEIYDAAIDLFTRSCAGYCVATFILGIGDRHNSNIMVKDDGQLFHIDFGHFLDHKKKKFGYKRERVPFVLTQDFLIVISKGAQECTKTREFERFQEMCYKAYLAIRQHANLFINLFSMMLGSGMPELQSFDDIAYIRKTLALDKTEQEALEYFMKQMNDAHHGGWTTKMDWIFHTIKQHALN
Chain of UniProt Q13882 (whole entry, looked up): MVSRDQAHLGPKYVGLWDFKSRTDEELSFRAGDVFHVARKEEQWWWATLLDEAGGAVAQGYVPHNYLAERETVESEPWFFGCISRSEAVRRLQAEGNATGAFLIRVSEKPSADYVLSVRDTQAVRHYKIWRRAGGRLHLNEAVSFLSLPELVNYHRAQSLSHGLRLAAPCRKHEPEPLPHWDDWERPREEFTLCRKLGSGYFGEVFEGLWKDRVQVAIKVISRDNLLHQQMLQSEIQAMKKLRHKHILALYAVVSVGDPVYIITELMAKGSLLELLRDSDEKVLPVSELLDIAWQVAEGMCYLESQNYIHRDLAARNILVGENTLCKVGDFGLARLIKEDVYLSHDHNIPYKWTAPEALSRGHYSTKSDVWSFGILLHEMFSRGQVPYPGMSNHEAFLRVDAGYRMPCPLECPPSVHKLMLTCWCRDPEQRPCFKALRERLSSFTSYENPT
Chain of UniProt Q9BX84 (whole entry, looked up): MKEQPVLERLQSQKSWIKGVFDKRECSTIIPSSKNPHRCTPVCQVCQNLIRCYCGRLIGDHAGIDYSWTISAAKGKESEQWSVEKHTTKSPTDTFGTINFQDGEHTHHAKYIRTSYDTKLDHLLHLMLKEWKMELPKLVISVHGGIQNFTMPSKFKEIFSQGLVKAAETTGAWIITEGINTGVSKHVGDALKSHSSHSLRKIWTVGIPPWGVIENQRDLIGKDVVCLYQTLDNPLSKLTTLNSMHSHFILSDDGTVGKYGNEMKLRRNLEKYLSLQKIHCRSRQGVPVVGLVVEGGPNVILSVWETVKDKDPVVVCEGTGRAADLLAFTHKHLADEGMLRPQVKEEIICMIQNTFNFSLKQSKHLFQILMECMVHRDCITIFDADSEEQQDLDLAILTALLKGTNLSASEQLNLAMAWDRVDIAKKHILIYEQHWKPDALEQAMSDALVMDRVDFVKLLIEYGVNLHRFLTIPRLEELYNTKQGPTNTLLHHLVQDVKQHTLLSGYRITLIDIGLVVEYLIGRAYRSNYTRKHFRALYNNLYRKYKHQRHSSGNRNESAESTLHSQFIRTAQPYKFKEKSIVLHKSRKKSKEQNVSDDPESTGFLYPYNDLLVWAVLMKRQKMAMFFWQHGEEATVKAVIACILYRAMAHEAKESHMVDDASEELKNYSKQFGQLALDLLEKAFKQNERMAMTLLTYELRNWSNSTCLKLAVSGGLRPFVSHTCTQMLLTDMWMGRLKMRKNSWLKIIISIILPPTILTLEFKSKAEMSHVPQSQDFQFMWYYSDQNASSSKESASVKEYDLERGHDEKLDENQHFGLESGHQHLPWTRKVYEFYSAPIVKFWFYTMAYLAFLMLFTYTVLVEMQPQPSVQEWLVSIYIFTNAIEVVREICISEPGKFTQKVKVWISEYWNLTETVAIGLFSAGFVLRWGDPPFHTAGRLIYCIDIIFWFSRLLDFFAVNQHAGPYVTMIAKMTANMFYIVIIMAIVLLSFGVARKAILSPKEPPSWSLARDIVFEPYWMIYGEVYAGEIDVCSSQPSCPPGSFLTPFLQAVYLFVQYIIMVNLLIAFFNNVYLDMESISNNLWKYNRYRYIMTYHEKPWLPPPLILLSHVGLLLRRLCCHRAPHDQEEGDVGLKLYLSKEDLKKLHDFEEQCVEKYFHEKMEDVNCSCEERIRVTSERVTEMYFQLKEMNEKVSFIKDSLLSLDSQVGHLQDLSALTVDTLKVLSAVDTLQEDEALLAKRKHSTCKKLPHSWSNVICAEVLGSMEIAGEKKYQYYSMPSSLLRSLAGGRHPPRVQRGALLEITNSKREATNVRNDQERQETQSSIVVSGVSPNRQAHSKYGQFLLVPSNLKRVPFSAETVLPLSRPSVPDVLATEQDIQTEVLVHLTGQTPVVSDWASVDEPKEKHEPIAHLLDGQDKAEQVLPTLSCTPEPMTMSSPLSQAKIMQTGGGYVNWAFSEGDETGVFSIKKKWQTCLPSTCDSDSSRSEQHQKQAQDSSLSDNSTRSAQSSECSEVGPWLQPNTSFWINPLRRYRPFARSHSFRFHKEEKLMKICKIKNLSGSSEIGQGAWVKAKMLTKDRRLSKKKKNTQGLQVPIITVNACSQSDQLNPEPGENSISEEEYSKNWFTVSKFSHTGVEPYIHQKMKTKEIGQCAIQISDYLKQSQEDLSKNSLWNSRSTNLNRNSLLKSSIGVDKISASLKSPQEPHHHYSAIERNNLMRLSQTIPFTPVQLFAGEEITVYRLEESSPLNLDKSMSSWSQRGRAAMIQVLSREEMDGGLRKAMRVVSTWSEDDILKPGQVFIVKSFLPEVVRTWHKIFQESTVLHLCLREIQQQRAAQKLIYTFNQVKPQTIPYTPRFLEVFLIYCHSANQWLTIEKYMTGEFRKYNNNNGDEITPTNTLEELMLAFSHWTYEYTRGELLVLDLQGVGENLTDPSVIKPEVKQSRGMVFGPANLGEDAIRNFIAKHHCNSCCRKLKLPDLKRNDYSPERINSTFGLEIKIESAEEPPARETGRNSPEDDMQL
Chain of UniProt Q02750 (whole entry, looked up): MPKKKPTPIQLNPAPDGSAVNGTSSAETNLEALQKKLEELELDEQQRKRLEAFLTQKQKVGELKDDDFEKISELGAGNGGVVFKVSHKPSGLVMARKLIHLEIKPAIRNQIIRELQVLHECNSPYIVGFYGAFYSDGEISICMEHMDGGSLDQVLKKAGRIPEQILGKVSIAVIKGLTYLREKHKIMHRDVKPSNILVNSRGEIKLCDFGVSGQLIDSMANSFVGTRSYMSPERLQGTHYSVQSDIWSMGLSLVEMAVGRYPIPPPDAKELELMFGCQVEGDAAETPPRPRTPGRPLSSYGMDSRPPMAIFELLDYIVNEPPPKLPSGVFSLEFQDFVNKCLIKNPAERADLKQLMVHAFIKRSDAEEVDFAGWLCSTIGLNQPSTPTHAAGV
Chain of UniProt Q86Y07 (whole entry, looked up): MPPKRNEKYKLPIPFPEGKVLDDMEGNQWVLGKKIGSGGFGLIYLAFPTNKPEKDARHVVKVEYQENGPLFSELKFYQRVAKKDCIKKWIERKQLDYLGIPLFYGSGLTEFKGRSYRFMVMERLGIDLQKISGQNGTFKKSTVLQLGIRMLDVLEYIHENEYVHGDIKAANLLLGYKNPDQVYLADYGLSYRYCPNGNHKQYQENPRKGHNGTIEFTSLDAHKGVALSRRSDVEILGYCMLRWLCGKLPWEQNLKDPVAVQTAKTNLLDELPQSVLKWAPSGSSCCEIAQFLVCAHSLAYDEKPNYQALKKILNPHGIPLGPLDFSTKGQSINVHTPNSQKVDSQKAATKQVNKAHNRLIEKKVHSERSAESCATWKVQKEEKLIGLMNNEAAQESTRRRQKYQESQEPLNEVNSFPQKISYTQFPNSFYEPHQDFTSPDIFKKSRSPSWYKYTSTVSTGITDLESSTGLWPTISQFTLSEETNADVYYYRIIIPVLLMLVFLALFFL

Sample 1 — species: mouse; sample: microsomes or S9; tested at: 2 µM; time: 0.5 h; quantity: remaining compound
CCOc1ccc(N2C(=O)c3c(C(=O)OC)ncn3CC2(C)C(=O)NC2CCCCCC2)cc1 (stereo not shown): 47.5%
O=C(NCCCN1CCCC1=O)C1CCCN1c1nnc(N2CCCC2=O)s1 (stereo not shown): > 99%
Fc1ccc2nccc(Nc3ccccc3F)c2c1: 88.4%
CCCS(=O)(=O)N1CC(=O)N(c2ccc(F)cc2F)C(C)(C(=O)NC2CCCCCCC2)C1 (stereo not shown): 0.288%
c1ccc(Cn2ncc3c(-n4ccnc4)ncnc32)cc1: 48.4%

Sample 2 — tested at: 0.1 µM; quantity: remaining binding
Compound: Cn1nc(C(=O)NCc2ccc(C(=O)O)cc2)cc1-c1ccc2[nH]ccc2c1
MAP2K1 (Homo sapiens, UniProt Q02750); cell-free assay, competition with immobilised ligand: 91%
DYRK1A (Homo sapiens, UniProt Q13627); cell-free assay, competition with immobilised ligand: 98%
VRK2 (Homo sapiens, UniProt Q86Y07); cell-free assay, competition with immobilised ligand: 91%
BUB1 (Homo sapiens, UniProt O43683); cell-free assay, competition with immobilised ligand: 83%
STK10 (Homo sapiens, UniProt O94804); cell-free assay, competition with immobilised ligand: 80%
MTOR (Homo sapiens, UniProt P42345); cell-free assay, competition with immobilised ligand: 31%
MARK4 (Homo sapiens, UniProt Q96L34); cell-free assay, competition with immobilised ligand: 100%
MAP3K14 (Homo sapiens, UniProt Q99558); cell-free assay, competition with immobilised ligand: 85%
RET (Homo sapiens, UniProt P07949, V804L); cell-free assay, competition with immobilised ligand: 45%
SIK3 (Homo sapiens, UniProt Q9Y2K2); cell-free assay, competition with immobilised ligand: 94%
PIK3CA (Homo sapiens, UniProt P42336, H1047Y); cell-free assay, competition with immobilised ligand: 100%
FLT1 (Homo sapiens, UniProt P17948); cell-free assay, competition with immobilised ligand: 89%
PTK6 (Homo sapiens, UniProt Q13882); cell-free assay, competition with immobilised ligand: 89%
PRPF4B (Homo sapiens, UniProt Q13523); cell-free assay, competition with immobilised ligand: 100%
TLK1 (Homo sapiens, UniProt Q9UKI8); cell-free assay, competition with immobilised ligand: 100%
TSSK3 (Homo sapiens, UniProt Q96PN8); cell-free assay, competition with immobilised ligand: 97%
Tyrosine-protein kinase ABL1, non-phosphorylated (ABL1, Homo sapiens, UniProt P00519, H396P); cell-free assay, competition with immobilised ligand: 71%
PIM3 (Homo sapiens, UniProt Q86V86); cell-free assay, competition with immobilised ligand: 91%
LCK (Homo sapiens, UniProt P06239); cell-free assay, competition with immobilised ligand: 75%
ACVR2A (Homo sapiens, UniProt P27037); cell-free assay, competition with immobilised ligand: 98%
CLK4 (Homo sapiens, UniProt Q9HAZ1); cell-free assay, competition with immobilised ligand: 69%
NEK11 (Homo sapiens, UniProt Q8NG66); cell-free assay, competition with immobilised ligand: 83%
TRPM6 (Homo sapiens, UniProt Q9BX84); cell-free assay, competition with immobilised ligand: 79%
MAPK15 (Homo sapiens, UniProt Q8TD08); cell-free assay, competition with immobilised ligand: 98%
AAK1 (Homo sapiens, UniProt Q2M2I8); binding: 90%

Sample 3 — species: C57BL/6 CES1-/- mice, MC-38 tumour; dose: dose not given; added: anti-PD-1; reference: initial; quantity: body weight
Compound: CC(=O)N[C@@H](Cc1c[nH]c2ccccc12)C(=O)N[C@@H](CCC(=O)C=[N+]=[N-])C(=O)OC(C)C
day 59 after inoculation: 101% and 91.5% and 104% and 88.9% and 98.7%
day 38 after inoculation: 100% and 93.5% and 92.7% and 96.1% and 96% and 97.8%
day 88 after inoculation: 110% and 104%

Sample 4 — technique: competitive binding panel; tested at: 1 µM; reference: vehicle; quantity: remaining binding
SMILES: CN1CCN(C(=O)c2ccc(NC(=O)Nc3ccc(N(C)c4ccnc(Nc5ccc(CS(C)(=O)=O)cc5)n4)cc3)cc2)CC1
GRK1 (Homo sapiens, UniProt Q15835): 100%
PIK3CA (Homo sapiens, UniProt P42336, E542K): 98%
AKT2 (Homo sapiens, UniProt P31751): 100%

Sample 5 — cell line: HaCaT; tested at: 100 µM; time: 36 h; quantity: viability
CC(C)(C)NCC(O)c1cc(O)cc(O)c1 (stereo not shown): 75.2%
COc1cc(C(=O)NS(=O)(=O)c2ccccc2C)ccc1Cc1cn(C)c2ccc(NC(=O)OC3CCCC3)cc12: 44.3%
COc1ccc(-c2cc(=O)c3c(O)c(OC)c(O)cc3o2)cc1OC: 60.4%
CC(C)(Oc1ccc(Cl)cc1)C(=O)OCCOC(=O)c1cccnc1: 110%
O=C(/C=C/C=C/c1ccc2c(c1)OCO2)N1CCCCC1: 50.6%
OC1(c2ccc(Cl)c(C(F)(F)F)c2)CCN(CCCC(c2ccc(F)cc2)c2ccc(F)cc2)CC1: 5.75%
CCN(CC)CCOc1ccc2c(c1)C(=O)c1cc(OCCN(CC)CC)ccc1-2: 4.77%
CC(=O)OCC(COC(C)=O)OC(C)=O: 85.3%

Sample 6 — target: His6 tag; technique: AlphaScreen counter screen; tested at: concentration not given; quantity: inhibition
Cc1nc(NC(=O)N2CCC[C@H]2C(N)=O)sc1-c1ccnc(C(C)(C)C(F)(F)F)c1: 11.6%
O=C(NC[C@H](O)CO)c1ccncc1Nc1ccc(I)cc1F: 11.6%
COC(=O)c1ccc(CSc2nc3c([nH]c4ccccc43)c(=O)n2C)o1: 0.75%
OC1CCCN(Cc2c(-c3ccco3)[nH]c3ncccc23)C1 (stereo not shown): 12.6%
CCCN(Cc1ccccc1)C(=S)Nc1ccc2nc[nH]c(=O)c2c1: 8.15%

Sample 7 — read-out: enzyme activity; mode: inhibitor; tested at: 10 µM; quantity: inhibition
Target: Calcium/calmodulin-dependent protein kinase type II subunit alpha (CAMK2A, Homo sapiens, UniProt Q9UQM7)
Chain of UniProt Q9UQM7 (whole entry, looked up): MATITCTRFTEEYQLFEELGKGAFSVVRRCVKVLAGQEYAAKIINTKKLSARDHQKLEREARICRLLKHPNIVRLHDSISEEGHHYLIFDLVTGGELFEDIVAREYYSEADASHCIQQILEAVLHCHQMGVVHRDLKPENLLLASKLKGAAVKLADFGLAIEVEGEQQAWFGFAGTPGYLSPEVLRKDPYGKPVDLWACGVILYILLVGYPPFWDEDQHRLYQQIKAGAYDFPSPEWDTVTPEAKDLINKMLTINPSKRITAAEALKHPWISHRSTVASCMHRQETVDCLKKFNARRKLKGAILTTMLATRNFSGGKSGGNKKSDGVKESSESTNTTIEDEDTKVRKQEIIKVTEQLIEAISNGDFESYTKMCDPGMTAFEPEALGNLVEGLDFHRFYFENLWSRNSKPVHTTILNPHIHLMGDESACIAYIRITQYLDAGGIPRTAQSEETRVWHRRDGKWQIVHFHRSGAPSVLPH
O=C1NC(=O)C(c2ccccc2)(c2ccccc2)N1: -4%
Cc1cn([C@H]2C[C@H](O)[C@@H](CO)O2)c(=O)[nH]c1=O: 2%
CNCC(=O)O: -2%
CCCCCCCCCCCCCCCC(=O)O[C@@H]1[C@@H](O)[C@@H](O)[C@@H]([C@H](NC(=O)[C@@H]2C[C@@H](CCC)CN2C)[C@H](C)Cl)O[C@@H]1SC: -8%
CC1(C)CC[C@]2(C(=O)O[C@@H]3O[C@H](CO)[C@@H](O)[C@H](O)[C@H]3O)CC[C@]3(C)C(=CC[C@@H]4[C@@]5(C)CC[C@H](O[C@@H]6O[C@H](C(=O)O)[C@@H](O)[C@H](O[C@@H]7OC[C@@H](O)[C@H](O)[C@H]7O)[C@H]6O)C(C)(C)[C@@H]5CC[C@]43C)[C@@H]2C1: -3%
C[C@@H](O)[C@@H](O)C1=Nc2c(nc(N)[nH]c2=O)NC1: 0%

Repeated from above (sample 6):
CCCN(Cc1ccccc1)C(=S)Nc1ccc2nc[nH]c(=O)c2c1: 8.15%
O=C(NC[C@H](O)CO)c1ccncc1Nc1ccc(I)cc1F: 11.6%
OC1CCCN(Cc2c(-c3ccco3)[nH]c3ncccc23)C1 (stereo not shown): 12.6%
COC(=O)c1ccc(CSc2nc3c([nH]c4ccccc43)c(=O)n2C)o1: 0.75%
Cc1nc(NC(=O)N2CCC[C@H]2C(N)=O)sc1-c1ccnc(C(C)(C)C(F)(F)F)c1: 11.6%
